Published values gathered from unrelated publications.
A part holds a random share of what one study measured.

Study 1
Target: Sal-like protein 4, full length isoform B (SALL4, Homo sapiens, UniProt Q9UJQ4-2, residues 1-616)
Technique: universal PBM
Form: double-stranded DNA, one strand shown
Medium: in vitro
Concentration: not given
Setting: 8-mer, flanks averaged, mean of replicates
Direction: higher = stronger binding
Quantity: E-score
Oligonucleotide = AACCACAA; result = 0.121
Oligonucleotide = GAAGACTA; result = 0.0323
Oligonucleotide = GAACCCCC; result = -0.403
Oligonucleotide = CCACGCAA; result = -0.179
Oligonucleotide = CTCAAAAG; result = -0.00201
Oligonucleotide = AGTGAGGC; result = -0.221
Oligonucleotide = AAAACACG; result = 0.0335
Oligonucleotide = AATGCGAG; result = 0.142
Oligonucleotide = TATAGGAA; result = 0.285

Study 2
Target: RING finger protein unkempt homolog, zinc fingers 1-6, GST-SBP tag (UNK, Homo sapiens, UniProt Q9C0B0, residues 30-357)
Technique: RNA Bind-n-Seq
Form: RNA
Medium: in vitro
Concentration: not given
Setting: RNA with constant flanks, human and mouse sites, ends assumed
Relative to: input RNA pool
Direction: higher = stronger binding
Quantity: bound/input enrichment
Constant ends, left off below: GGGAGUUCUACAGUCCGACGAUC … CAACAGAGGAUUGAGCAUCA
Target sequence (chain): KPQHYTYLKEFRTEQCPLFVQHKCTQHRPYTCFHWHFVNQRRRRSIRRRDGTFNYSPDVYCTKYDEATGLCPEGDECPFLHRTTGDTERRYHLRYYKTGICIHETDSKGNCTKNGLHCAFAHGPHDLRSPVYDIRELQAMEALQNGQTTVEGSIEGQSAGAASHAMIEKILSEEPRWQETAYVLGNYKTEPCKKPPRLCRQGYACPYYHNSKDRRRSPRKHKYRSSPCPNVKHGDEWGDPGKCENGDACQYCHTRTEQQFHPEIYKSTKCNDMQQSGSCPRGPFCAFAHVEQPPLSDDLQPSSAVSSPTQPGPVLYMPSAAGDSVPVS
Oligonucleotide = CCAAAGAAGAUACAGUAUGAAAGUAGAGGUGCACUCUCUAUAAUACAAUCUACUGUACAGUUAGCAAGCGAAGUGUUAAAUGGAGAAGAUGCUUGUUUUUAUUAAACAUUUGGAGAUUUA; result = 0.614 ratio
Oligonucleotide = ACAGUAAAAAGAACAGAAACAGAAAAAAAGCCACCACCUAUUAAGGAUAGCAAAUCUUUAACAGCUGAGCCUCAAAAGGCUGUCCUUCCCACAAAACUGGAGAAAUCGCCCAAACCAGAA; result = 0.338 ratio
Oligonucleotide = GAGGGGGGAGGGGAGGGAGCCAAGGGAUGGACAUCUUGUUUUUGUUUUGGCUUUUUUUUUUUUUGUUUCAGUUUUUUUUCUCUAUGAAUAAAUGUCACUUUUUGAGGCAAAAAGAAGGAA; result = 1.69 ratio
Oligonucleotide = AUAAAAUGUGUUUUGUGUUCCCAUUACUGCAGUAGGUGCUAGUGAGCAUAAGAUGCAUACAAUAGGGCUCCUGCCCUUCCCUGAGUUAGAAUGUGGUUCAGUACAUAUGUUUAGUAUGCA; result = 0.908 ratio
Oligonucleotide = CCUGCCUCAGCCUCCCAAGUAGCUGGUACUACAGGUGCGUGCCACCACACCUGGCUUAUUUUAGUUAUUUUAGUAGAGAUAGGGUUUCACCAUGUUGGCCAGGCUGGUCUCGGAACUCCU; result = 2.98 ratio
Oligonucleotide = GAUUUCUUCUCCAUUGGGAAUGAAGGUGUCAGGCGGGACUGGAACGUUCUAGAUGGUAUGUUCCGUGAUAUUAACAACUCUAACCCAGGACAGACCACAAGCCACACUCAGAGGCCUCAC; result = 0.0827 ratio

Study 3
Target: Ras GTPase-activating protein-binding protein 1, full length (G3BP1, Homo sapiens, UniProt Q13283)
UniProt Q13283, sequence (whole entry, looked up): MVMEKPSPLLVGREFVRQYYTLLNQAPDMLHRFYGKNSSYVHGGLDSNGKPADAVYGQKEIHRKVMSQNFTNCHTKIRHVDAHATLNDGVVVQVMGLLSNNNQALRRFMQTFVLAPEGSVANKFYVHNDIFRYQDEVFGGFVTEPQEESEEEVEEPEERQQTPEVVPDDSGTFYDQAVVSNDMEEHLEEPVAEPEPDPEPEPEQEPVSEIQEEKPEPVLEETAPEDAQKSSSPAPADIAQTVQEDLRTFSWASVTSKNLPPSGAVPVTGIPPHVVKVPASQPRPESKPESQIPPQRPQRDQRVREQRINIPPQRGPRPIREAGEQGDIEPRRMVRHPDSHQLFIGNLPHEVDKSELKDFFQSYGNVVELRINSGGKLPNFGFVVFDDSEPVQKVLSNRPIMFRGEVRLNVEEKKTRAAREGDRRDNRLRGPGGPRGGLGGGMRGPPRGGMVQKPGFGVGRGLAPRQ
Technique: RNA Bind-n-Seq
Form: RNA
Medium: in vitro
Concentration: 200 nM
Setting: whole 134-nt RNA, ends assumed
Together with: 150 mM KCl
Relative to: input library
Direction: higher = stronger binding
Quantity: log2 enrichment
Constant ends, left off below: GGGAGUUCUACAGUCCGACGAUC … UGGAAUUCUCGGGUGUCAAGG
Oligonucleotide = UGGGAGGUGGAUUUUGUUUAUUUUUUUAGCUCAUUUCCAGGGGUGGGAAUUUUUUUUUAAUAUGUGUCAAGAAUAAAGUUGUUUUUGAAA; result = 0.101
Oligonucleotide = CACAGACAACACGCACCCACACAGACACAGAGGGAAGGGGUUGGGAUGGGGACAGGGUGCACAGCAGGGCGGGGUAGGACCCCAGCCAAA; result = 1.97
Oligonucleotide = AGUCCUGUGCUACACAUCGUAUGUACCGAAUCAAAUUUAAAUUUUUAAAUUUUUAAAAAAGUAUUAUGUUACGCCGUUCGGAUCUGCACU; result = -1.75
Oligonucleotide = GCAGGAAGUAAAAACAAAUGGAAAUGCUUCGGAUAGUGGCAGGGGUGGGGGUUGCGAAGGAAAGGGUGGGAUGGGAGUGGGUAAAGAGUU; result = 0.693
Oligonucleotide = AGUCCUGUGCUACACAUCGUAUGUACCGAAUCGGCCCCCGGGCCCCCGGGCCCCCGGGAAAGUAUUAUGUUACGCCGUUCGGAUCUGCAC; result = -1.32
Oligonucleotide = UGGCCCUGGUGGCUUGCGGGGAGGAAGAGGUGGCCUCAUGGAUCGUGGUGGUCCCGGUGGAAUGUUCAGAGGUGGCCGUGGUGGAGACAG; result = 0.299
Oligonucleotide = UGGAAGCUCAUACGACUGUGAAAGAAGCUGAGGAUGACAACAUCUCGGUCACAAUCCAGGCUGAAGAUGCCAUCACUCUGGAUUUUGAUG; result = -1.36
Oligonucleotide = CAAGUCCUGUGCUACACAUCGUAUGUACCGAAUCGGAGGUUUUUGGUUUUUUUGGAAAGUAUUAUGUUACGCCGUUCGGAUCUGCACUUC; result = -1.1
Oligonucleotide = UCCUGUGCUACACAUCGUAUGUACCGAAUCAAACCCCCCCAAAUUUAAAUUUUUUUAAAAAAGUAUUAUGUUACGCCGUUCGGAUCUGCA; result = 0.313

Other studies, line by line
Substance = PhoQ, residues 284 288 289 292 302 303 GANMMA; target = PhoP, residues 12 14 15 18 19 GQALL (Escherichia coli, UniProt P23836); assay = Sort-seq, measured: YFP reporter; system = E. coli; conditions = PhoQ-PhoP variant library, together with: 10 µM Mg2+; how to read = relative to: high Mg2+ state, higher = stronger signaling; quantity = fold induction; result = 3.96

Some of these lines once more (study 1):
Oligonucleotide = AACCACAA; result = 0.121
Oligonucleotide = GAAGACTA; result = 0.0323
